Measured values gathered from unrelated publications.
Lines come from different studies, so protocols differ. Numbers after ± are the reported error.

| SMILES | assay | test system | setting | scale | endpoint | value |
| --- | --- | --- | --- | --- | --- | --- |
| C[C@H](NC(=O)COC(=O)[C@H](C)NC(=O)CO)C(=O)O |  | water | pH 7, 25 °C |  | depolymerization rate constant | 1.11 h⁻¹ |
| Cc1ccc(-c2oc3ccccc3c(=O)c2OCc2ccccc2)cc1 |  | diabetic rat | 7.5 mg/kg, day 21, p-nitrophenyl β-glucoside induced |  | blood glucose | 189 ± 5 mg/dL |
| Cc1cc(N)c2cc(NC(=O)C(=O)Nc3ccc4nc(C)cc(N)c4c3)ccc2n1 | fondaparinux neutralization | mouse | intravenous, 16 mg/kg, 5 min, with: fondaparinux 0.5 mg/kg s.c. |  | plasma fondaparinux concentration | 0.14 ± 0.06 mg/L |
| CCCCCCCCCn1cc(C(N)(CO)CO)nn1 | measured: Il-4, Tgf-β, Arg1 | APP/PS1 mouse | dose not given | reference: PBS | anti-inflammatory mRNA levels | increased |
| Cc1cc2c(cc1C1(c3ncc(C(=O)O)cn3)CC1)C(C)(C)CCC2(C)C | RNA sequencing, measured: Aurkb mRNA | rat, brain | dose not given, 24 h, single dose | reference: vehicle | log2 fold change | 0.25 |
| Cc1cc(O)c(C=O)c2c1C(=O)Oc1c(CO)c(O)c3c(c1O2)C(O)OC3=O (stereo not shown) | copulatory behaviour test | rat, male, streptozotocin-induced diabetes | 5 mg/kg, day 63 |  | post-ejaculatory interval | 1400 ± 120 s |
| CC[C@H](C)[C@H](NC(=O)[C@H](CCC(=O)O)NC(=O)[C@H](C)NC(=O)[C@@H](NC(=O)[C@H](Cc1c[nH]cn1)NC(=O)[C@@H](NC(=O)[C@H](CCC(=O)O)NC(=O)[C@H](C)NC(=O)[C@@H](NC(=O)[C@H](CC(C)C)NC(=O)[C@H](CCCCN)NC(=O)[C@H](Cc1c[nH]cn1)NC(=O)[C@H](CC(C)C)NC(=O)[C@H](Cc1ccccc1)NC(=O)[C@H](C)NC(=O)[C@H](CCCNC(=N)N)NC(=O)[C@H](CCCNC(=N)N)NC(=O)[C@H](CCCNC(=N)N)NC(=O)[C@H](C)NC(=O)[C@H](CC(=O)O)NC(=O)[C@H](CCC(N)=O)NC(=O)[C@@H](NC(=O)[C@H](Cc1c[nH]c2ccccc12)NC(=O)[C@H](CCCCN)NC(=O)[C@H](C)NC(=O)[C@H](CCCNC(=N)N)NC(=O)[C@H](CCC(N)=O)NC(=O)[C@H](Cc1c[nH]cn1)NC(=O)[C@H](CCSC)NC(=O)[C@H](CC(C)C)NC(=O)[C@H](CCC(N)=O)NC(=O)[C@@H](NC(=O)[C@H](CCC(=O)O)NC(=O)[C@H](C)NC(=O)[C@@H](NC(=O)[C@H](C)N)C(C)C)[C@@H](C)CC)[C@@H](C)CC)[C@@H](C)CC)[C@@H](C)CC)[C@@H](C)O)C(=O)O |  | cynomolgus monkey, serum | subcutaneous, 0.5 and 1.0 nmol/kg, 24 h |  | peak serum calcium | ~13 mg/dL |
| Cc1[nH]nc2c1N=C(c1ccccc1Cl)c1cnc(N3CCOCC3)cc1N2 |  | MC-38 syngeneic tumour, mice, tumour | dose not given, monotherapy |  | tumour-associated macrophage infiltration | decreased |
| CC(C)[C@H](NC(=O)CN)C(=O)N[C@@H](CCCCN)C(=O)NCC(=O)N[C@@H](CC(=O)O)C(=O)N[C@@H](CCCCN)C(=O)NCC(=O)N[C@@H](CC(N)=O)C(=O)N1CCC[C@H]1C(=O)NCC(=O)N[C@@H](Cc1c[nH]c2ccccc12)C(=O)N1CCC[C@H]1C(=O)NCC(=O)N[C@@H](C)C(=O)N1CCC[C@H]1C(=O)O |  | B104 neuroblastoma, rat | 100 µg/mL coating, peptide-coated plates | reference: input cells | cell adhesion | 18.5% |
| CC(=O)Nc1ccc(OC(=O)CCC(=O)[O][Pt-2]23([O]C(=O)CCC(=O)Oc4ccc(NC(C)=O)cc4)([NH2+][C@@H]4CCCC[C@H]4[NH2+]2)[O]C(=O)C(=O)[O]3)cc1 |  | BALB/c mouse, 4T1 tumour, tumour | dose not given |  | CD3+CD4+ T cells | 6.73% |
| Cc1nc(C)c(C=[N+]([O-])C(C)(C)C)nc1C | western blot, measured: CDK5 | mouse MPTP model | 10 mg/kg | decrease | protein level | 83.8% |
| COc1ccc(C2CC(c3ccc(C)cc3)=Nc3ccccc3S2)cc1 (stereo not shown) |  | Wistar rat, STZ-induced diabetes | oral, 10 mg/kg once daily, day 28 |  | blood glucose | 132 mg/dL |
| CC(C)C[C@H](N)C(=O)N[C@@H](CO)C(=O)N[C@@H](Cc1ccccc1)C(=O)N1CCC[C@H]1C(=O)N[C@H](C(=O)N[C@H](C(=O)N[C@@H](CCCCN)C(=O)N[C@H](C(=O)N[C@@H](Cc1ccc(O)cc1)C(=O)N[C@@H](Cc1ccccc1)C(=O)O)[C@@H](C)O)[C@@H](C)O)[C@@H](C)O | radiotelemetry | mouse AngII-induced hypertension | intraperitoneal, 5 mg/kg every other day | reference: saline | systolic blood pressure decrease | ~30 mmHg |
| O=c1c(OCc2ccccc2)c(-c2ccc(Cl)cc2)oc2ccccc12 |  | diabetic rat | 7.5 mg/kg, day 1, p-nitrophenyl β-glucoside induced |  | blood glucose | 441 ± 4.97 mg/dL |
| CSCC[C@@H]1NC(=O)[C@H](CCCCN)NC(=O)[C@H]([C@@H](C)O)NC(=O)[C@H](CCCCN)NC(=O)[C@H](CC(C)C)NC(=O)[C@H](CCCCN)NC(=O)[C@H](CCCNC(=N)N)NC(=O)[C@@H]2CSSC[C@@H]3NC(=O)[C@@H]4CCCN4C(=O)[C@H](C(C)C)NC(=O)[C@H](CCC(N)=O)NC(=O)[C@H](CCC(N)=O)NC(=O)CNC(=O)[C@H](CC(C)C)NC(=O)[C@@H]4CSSC[C@H](NC(=O)[C@H]([C@@H](C)O)NC(=O)[C@H](C)NC(=O)[C@H](CSSC[C@@H](C(=O)N[C@@H](CO)C(=O)N[C@@H](CCCNC(=N)N)C(=O)N[C@H](C(N)=O)[C@@H](C)O)NC(=O)[C@@H]5CCCN5C(=O)[C@H](CC(N)=O)NC1=O)NC(=O)[C@@H]1CCCN1C(=O)[C@H](CC(=O)O)NC(=O)[C@H](CSSC[C@H](NC(=O)[C@H](CCCNC(=N)N)NC(=O)[C@H](CCCNC(=N)N)NC(=O)[C@H](CO)NC(=O)[C@@H](N)CO)C(=O)N[C@@H](C(C)C)C(=O)N[C@@H](CCCNC(=N)N)C(=O)N[C@@H](CC(C)C)C(=O)N[C@@H](Cc1c[nH]cn1)C(=O)N[C@@H](CCC(=O)O)C(=O)N[C@@H](CO)C(=O)N4)NC3=O)C(=O)N[C@@H](Cc1ccc(O)cc1)C(=O)N[C@H]1CSSC[C@H](NC(=O)[C@H](Cc3ccccc3)NC(=O)[C@H](C)NC(=O)[C@H](CC(N)=O)NC(=O)[C@H](Cc3ccccc3)NC(=O)[C@H](Cc3ccccc3)NC(=O)[C@H](CCCNC(=N)N)NC1=O)C(=O)N[C@@H](Cc1ccc(O)cc1)C(=O)N2 |  | Long-Evans rat, male | intracerebroventricular, 1.0 nmol, day 3, non-cumulative | reference: saline | food intake | 77.3 ± 4.3 % above saline |
| O=c1c(OCc2ccccc2)c(-c2ccc([N+](=O)[O-])cc2)oc2ccccc12 |  | diabetic rat | 7.5 mg/kg, day 28, p-nitrophenyl β-glucoside induced |  | blood glucose | 161 ± 4.41 mg/dL |
| CN1CCC[C@]1(C)/C=C/S(=O)(=O)NC(=O)Nc1c2c(cc3c1CCC3)CCC2 | IL-1β release | human, whole blood ex vivo | oral, 100 mg, 36 h after last dose, multiple ascending dose, with: LPS and ATP |  | inhibition | ~90% |
| COc1ccc2c(c1)c(CC(=O)OCC(=O)c1ccccc1)c(C)n2C(=O)c1ccc(Cl)cc1 | hot plate test | BALB/c mice | 75 mg/kg, 0 min |  | latency of nociceptive response | 9.64 ± 0.66 s |
| COc1cc(CN2CCN(c3ccc(OC(F)(F)F)cc3)CC2)c2cc3[n+](cc2c1O)CCc1cc2c(cc1-3)OCO2 | ABTS scavenging, absorbance |  | 10 min |  | IC50 | 11.6 µg/mL |
| COc1cc2c(cc1OC)-c1cc3ccc(OC)c(OC)c3c[n+]1CC2 |  | rat, STZ-induced diabetic, serum | oral, 12 mg/kg, day 28 |  | creatinine | 1.09 ± 0.07 mg/dL |
| CN(C)c1ccc(-c2oc3ccccc3c(=O)c2OCc2ccccc2)cc1 |  | diabetic rat | 5 mg/kg, day 21, p-nitrophenyl β-glucoside induced |  | blood glucose | 170 ± 4.63 mg/dL |
| N#Cc1cc(C(=O)OCC[18F])c(C(F)(F)F)nc1N1CCN(C(=O)Cc2ccccc2)CC1 | PET | human, contralateral normal brain |  |  | SUVmean | 0.9 ± 0.16 |
| O=C1c2c(cc(O)c3c2oc2cc(O)c(O)cc23)OC1Cc1ccccc1 (stereo not shown) | DPPH scavenging, absorbance |  |  |  | EC50 | 130 µM |
| COc1ccc(-c2oc3ccccc3c(=O)c2OCc2ccccc2)cc1 |  | diabetic rat | 7.5 mg/kg, day 14, p-nitrophenyl β-glucoside induced |  | blood glucose | 193 ± 4.46 mg/dL |
| COC(=O)C(Cc1c[nH]cn1)NC(=O)C1(C)C(O)CCC2(C)C1CCC1(C)C2CC=C2C3C(C)C(C)CCC3(C)CCC21C (stereo not shown) |  | rat TNBS-induced colitis | oral, dose not given, day 6 | direction not given | clinical activity score | 3 ± 1 |
| C[C@@H](O)[C@@H]1NC(=O)[C@H](CCCCN)NC(=O)[C@@H](Cc2ccc(NC(N)=O)cc2)NC(=O)[C@H](Cc2ccc(NC(=O)[C@@H]3CC(=O)NC(=O)N3)cc2)NC(=O)[C@H](NC(=O)[C@H](Cc2ccc(Cl)cc2)NC(=O)CN2CCN(CC(=O)O)CCN(CC(=O)O)CCN(CC(=O)O)CC2)CSSC[C@@H](C(=O)N[C@H](Cc2ccc(O)cc2)C(N)=O)NC1=O [gallium-68 labelled] | PET/CT | human neuroendocrine tumour patients, liver lesions | 60 min |  | SUVpeak | 21 ± 19 |
| S=c1n(CN2CCN(c3ccccn3)CC2)nc(C23CC4CC(CC(C4)C2)C3)n1-c1ccccc1 | paw oedema | rat | intraperitoneal, 40 mg/kg |  | inhibition in vivo | 38.9% |
| COC(=O)C=CCCC(NC(=O)c1ccncc1C(=O)O)C(=O)NC(C(=O)N1CC(=O)CC1C(=O)NC(C(=O)NC(C(N)=O)C1CCCCC1)C1CCCCC1)C(C)(C)C (stereo not shown) |  | New Zealand White rabbit | dose not given, venous stasis |  | thrombus length | 11 ± 1 mm |

Some of these lines once more:
| SMILES | assay | test system | setting | scale | endpoint | value |
| --- | --- | --- | --- | --- | --- | --- |
| Cc1cc2c(cc1C1(c3ncc(C(=O)O)cn3)CC1)C(C)(C)CCC2(C)C | RNA sequencing, measured: Aurkb mRNA | rat, brain | dose not given, 24 h, single dose | reference: vehicle | log2 fold change | 0.25 |
